Experimental data gathered from unrelated publications.
Compare with care: the assays were run in different laboratories. “And” joins repeats or separate records; there may be more than shown. ± marks the error that the study gave.

Compound	cell line	test	system	setting	how to read	viability
O=C(OC[C@@]1(O)C(=O)C=C[C@H]2[C@@H]1[C@H]1C=C[C@@H]2C(=O)[C@]1(O)COC(=O)c1ccccc1)c1ccccc1	A549	cell growth or viability, MTT	–	100 µg/mL	–	73.3%
COc1ccc(Cn2cc(CO[C@@H]3O[C@H]4[C@H](OC[C@H]4O)[C@H]3N=[N+]=[N-])nn2)cc1	HPAF-II	cytotoxicity, CellTiter-Glo	–	up to 30 µM, 72 h	–	not toxic
CC(=O)OC[C@H]1O[C@@H]([Se]SC[C@H]2O[C@@H]3OC(C)(C)O[C@@H]3[C@H]3OC(C)(C)O[C@H]32)[C@H](OC(C)=O)[C@@H](OC(C)=O)[C@@H]1OC(C)=O	THP-1 macrophages (PMA-differentiated)	WST-1	–	10 µM, 24 h	–	45.7 ± 0.7%
COC1OC(C)C(OS(=O)(=O)O)C(OC2OC(C)C(OS(=O)(=O)O)C(OC3OC(C)C(OS(=O)(=O)O)C(OC4OC(C)C(OS(=O)(=O)O)C(OC5OC(C)C(OS(=O)(=O)O)C(OC6OC(C)C(OS(=O)(=O)O)C(OC7OC(C)C(OS(=O)(=O)O)C(OC8OC(C)C(OS(=O)(=O)O)C(OC9OC(C)C(OS(=O)(=O)O)C(OC%10OC(C)C(OS(=O)(=O)O)C(OS(=O)(=O)O)C%10OS(=O)(=O)O)C9OS(=O)(=O)O)C8OS(=O)(=O)O)C7OS(=O)(=O)O)C6OS(=O)(=O)O)C5OS(=O)(=O)O)C4OS(=O)(=O)O)C3OS(=O)(=O)O)C2OS(=O)(=O)O)C1OS(=O)(=O)O (stereo not shown)	NIH 3T3	CCK-8	–	concentration not given, 24 h, high concentration	reference: untreated cells	102% and 107%
O=CCNCCOn1c(=O)n(OCCNCCO)c(=O)n(OCCNCCOn2c(=O)n(OCCNCCO)c(=O)n(OCCNCCO)c2=O)c1=O	HUVEC	cell growth or viability, MTT	–	12.5 µg/mL, 72 h	–	24.3%
COC1OC(C)C(OC2OC(C)C(OS(=O)(=O)O)C(OC3OC(C)C(OC4OC(C)C(OS(=O)(=O)O)C(OC5OC(C)C(OC6OC(C)C(OS(=O)(=O)O)C(OC7OC(C)C(OS(=O)(=O)O)C(OS(=O)(=O)O)C7OS(=O)(=O)O)C6OS(=O)(=O)O)C(OS(=O)(=O)O)C5OS(=O)(=O)O)C4OS(=O)(=O)O)C(OS(=O)(=O)O)C3OS(=O)(=O)O)C2OS(=O)(=O)O)C(OS(=O)(=O)O)C1OS(=O)(=O)O (stereo not shown)	NIH 3T3	CCK-8	–	concentration not given, 24 h, medium concentration	reference: untreated cells	89.5% and 105% and 100%
C=C(C)[C@H]1Cc2c(cc(O)c3c2O[C@@H]2COc4cc(OC)c(OC)cc4[C@@H]2C3=O)O1	A549	cell growth or viability, MTT	–	100 µg/mL	–	55.1%
CCOC(=O)C1CC(C)C2C=CC3CCN(C(=O)C4CCC5C=CC6(CCCN6C(=O)C(Cc6ccccc6Cl)NC(C)=O)C(=O)N54)C3C(=O)N12 (stereo not shown)	MDA-MB-231	–	–	180 µM, 24 h	–	not toxic
CC(=O)OC[C@H]1O[C@@H]([Se]C(C)=O)[C@H](OC(C)=O)[C@@H](OC(C)=O)[C@@H]1OC(C)=O	THP-1 macrophages (PMA-differentiated)	WST-1	–	10 µM, 24 h	–	104 ± 19.6%
O=C(O)c1c(O)cc(O[C@@H]2O[C@H](CO)[C@@H](O)[C@H](O)[C@H]2O)cc1/C=C/c1ccccc1	WI-38	cell growth or viability, crystal violet	–	50 µM, 48 h	–	> 50%
COC1OC(C)C(OC2OC(C)C(O)C(OC3OC(C)C(OC4OC(C)C(O)C(OC5OC(C)C(OC6OC(C)C(O)C(OC7OC(C)C(OC8OC(C)C(O)C(OS(=O)(=O)O)C8OS(=O)(=O)O)C(OS(=O)(=O)O)C7OS(=O)(=O)O)C6OS(=O)(=O)O)C(OS(=O)(=O)O)C5OS(=O)(=O)O)C4OS(=O)(=O)O)C(OS(=O)(=O)O)C3OS(=O)(=O)O)C2OS(=O)(=O)O)C(OS(=O)(=O)O)C1OS(=O)(=O)O (stereo not shown)	NIH 3T3	CCK-8	–	concentration not given, 24 h, high concentration	reference: untreated cells	90.8% and 91.7% and 93.9%
CC(=O)OC[C@H]1O[C@@H]([Se]C(=O)c2ccc([N+](=O)[O-])cc2)[C@H](OC(C)=O)[C@@H](OC(C)=O)[C@@H]1OC(C)=O	THP-1 macrophages (PMA-differentiated)	WST-1	–	10 µM, 24 h	–	83.8 ± 18.8%
CC#CC#C/C=C1/O[C@@]2(CC[C@@H](OC(C)=O)CO2)[C@H](O)[C@H]1OC(C)=O	RAW264.7	MTT	DMEM with 10% FBS	50 µM, 18 h, added: LPS 1 µg/mL	reference: DMSO	95.3 ± 13.3%
CC(=O)OC[C@H]1O[C@@H]([Se]c2ccc([N+](=O)[O-])cc2[N+](=O)[O-])[C@H](OC(C)=O)[C@@H](OC(C)=O)[C@@H]1OC(C)=O	THP-1 macrophages (PMA-differentiated)	WST-1	–	50 µM, 24 h	–	2.3 ± 0.5%
CN1CCCNC(=O)c2cccc(c2)C(=O)NCCCN(C)CCCNc2cccc3c2C(=O)c2cccc(c2C3=O)NCCC1	NHEK	CCK-8	–	0.015 µM, 48 h	reference: untreated	92.1%
CC[C@H](C)[C@@H](C(=O)N[C@@H](Cc1ccc(O)cc1)C(=O)N1CCC[C@H]1C(=O)N[C@@H](Cc1ccccc1)C(=O)O)n1cc(C(Cc2ccc(O)cc2)NC(=O)[C@@H](NC(=O)[C@H](CCCNC(=N)N)NC(=O)[C@@H](N)CC(=O)O)C(C)C)nn1 (stereo partly shown)	Caco-2	cell growth or viability, MTT	–	50 µM, 48 h	–	86.9%
COc1ccc(Cn2cc(CCO[C@@H]3O[C@H]4[C@H](OC[C@H]4O)[C@H]3O)nn2)cc1	Huh-7	cytotoxicity, CellTiter-Glo	–	up to 30 µM, 72 h	–	not toxic
Cc1ccc(-n2cc(CSc3nc4ccccc4n3Cc3cn(-c4ccc(C)cc4)nn3)nn2)cc1	HEK293	MTT	–	250 ppm	–	9.07%
c1cc2nc(c1)-c1cccc(n1)CCCc1ccc(cc1)OCCCCCCOc1ccc(cc1)CCC2	Caco-2	cell growth or viability, MTT	–	12.5 µM, 48 h	–	91.9%
COc1cc(Oc2c(O)cc(C)c(Br)c2OC)c(C(=O)O)c(C)c1O	A549	MTT	–	10 or 50 µM, 48 h	–	101 ± 2.2%
COC1OC(C)C(OS(=O)(=O)O)C(OC2OC(C)C(OS(=O)(=O)O)C(OC3OC(C)C(OS(=O)(=O)O)C(OC4OC(C)C(OS(=O)(=O)O)C(OC5OC(C)C(OS(=O)(=O)O)C(OC6OC(C)C(OS(=O)(=O)O)C(OC7OC(C)C(OS(=O)(=O)O)C(OC8OC(C)C(OS(=O)(=O)O)C(OS(=O)(=O)O)C8OS(=O)(=O)O)C7OS(=O)(=O)O)C6OS(=O)(=O)O)C5OS(=O)(=O)O)C4OS(=O)(=O)O)C3OS(=O)(=O)O)C2OS(=O)(=O)O)C1OS(=O)(=O)O (stereo not shown)	NIH 3T3	CCK-8	–	concentration not given, 24 h, medium concentration	reference: untreated cells	105% and 115% and 112%
CCc1c(-c2ccc3[nH]ncc3c2)cnc(N)c1-c1ccc(O)cc1	CHP-212	SRB	–	0.1953 µM	–	102% and 100%
